Measured values of several laboratories.
± gives the spread as reported. The star is where a group is joined. * marks the point of attachment.
Mode: substrate
FURIN: Furin (FURIN, Homo sapiens, UniProt P09958)
Chain of UniProt P09958 (whole entry, looked up): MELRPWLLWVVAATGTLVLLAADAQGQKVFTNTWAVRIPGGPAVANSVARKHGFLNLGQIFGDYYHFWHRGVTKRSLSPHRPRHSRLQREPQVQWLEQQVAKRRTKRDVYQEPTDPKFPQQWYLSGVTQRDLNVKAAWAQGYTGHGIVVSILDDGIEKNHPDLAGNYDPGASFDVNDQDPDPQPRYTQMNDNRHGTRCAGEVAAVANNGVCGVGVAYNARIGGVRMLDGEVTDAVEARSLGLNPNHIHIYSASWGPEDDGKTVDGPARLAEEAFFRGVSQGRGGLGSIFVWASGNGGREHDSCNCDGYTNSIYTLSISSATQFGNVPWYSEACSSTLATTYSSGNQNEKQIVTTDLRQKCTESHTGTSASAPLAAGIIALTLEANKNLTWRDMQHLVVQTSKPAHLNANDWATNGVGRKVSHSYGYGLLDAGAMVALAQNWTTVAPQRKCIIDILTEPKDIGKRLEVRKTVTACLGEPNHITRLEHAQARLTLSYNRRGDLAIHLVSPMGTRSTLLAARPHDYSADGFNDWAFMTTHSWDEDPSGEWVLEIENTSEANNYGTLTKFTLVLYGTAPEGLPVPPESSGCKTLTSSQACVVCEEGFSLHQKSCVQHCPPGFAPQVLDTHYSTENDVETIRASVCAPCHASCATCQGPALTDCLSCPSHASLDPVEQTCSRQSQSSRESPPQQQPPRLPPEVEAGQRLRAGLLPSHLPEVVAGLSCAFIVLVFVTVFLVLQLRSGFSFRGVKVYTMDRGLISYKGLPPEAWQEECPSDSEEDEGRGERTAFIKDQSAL
Chain of UniProt Q2CEE3 (whole entry, looked up): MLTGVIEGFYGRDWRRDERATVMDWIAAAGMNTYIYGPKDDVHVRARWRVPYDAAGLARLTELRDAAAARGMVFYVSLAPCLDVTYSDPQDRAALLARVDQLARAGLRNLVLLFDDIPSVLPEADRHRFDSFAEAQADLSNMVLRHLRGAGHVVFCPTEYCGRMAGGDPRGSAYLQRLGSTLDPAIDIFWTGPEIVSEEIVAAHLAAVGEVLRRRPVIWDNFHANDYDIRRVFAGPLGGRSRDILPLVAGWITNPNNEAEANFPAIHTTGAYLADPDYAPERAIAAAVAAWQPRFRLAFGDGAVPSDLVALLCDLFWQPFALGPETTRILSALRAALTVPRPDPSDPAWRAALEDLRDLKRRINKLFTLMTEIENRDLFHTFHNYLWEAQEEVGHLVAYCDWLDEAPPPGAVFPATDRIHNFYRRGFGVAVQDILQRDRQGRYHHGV
Chain of UniProt Q97SH8 (whole entry, looked up): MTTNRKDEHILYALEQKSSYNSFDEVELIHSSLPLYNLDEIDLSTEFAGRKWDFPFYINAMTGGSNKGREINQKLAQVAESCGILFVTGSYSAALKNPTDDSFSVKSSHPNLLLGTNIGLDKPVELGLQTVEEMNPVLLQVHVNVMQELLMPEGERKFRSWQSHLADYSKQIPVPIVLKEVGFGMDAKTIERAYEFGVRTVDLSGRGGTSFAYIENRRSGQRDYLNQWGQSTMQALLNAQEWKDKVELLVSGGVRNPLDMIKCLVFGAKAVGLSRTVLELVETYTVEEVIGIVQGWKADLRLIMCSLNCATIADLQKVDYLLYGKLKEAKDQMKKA
Chain of UniProt K7WIZ6 (whole entry, looked up): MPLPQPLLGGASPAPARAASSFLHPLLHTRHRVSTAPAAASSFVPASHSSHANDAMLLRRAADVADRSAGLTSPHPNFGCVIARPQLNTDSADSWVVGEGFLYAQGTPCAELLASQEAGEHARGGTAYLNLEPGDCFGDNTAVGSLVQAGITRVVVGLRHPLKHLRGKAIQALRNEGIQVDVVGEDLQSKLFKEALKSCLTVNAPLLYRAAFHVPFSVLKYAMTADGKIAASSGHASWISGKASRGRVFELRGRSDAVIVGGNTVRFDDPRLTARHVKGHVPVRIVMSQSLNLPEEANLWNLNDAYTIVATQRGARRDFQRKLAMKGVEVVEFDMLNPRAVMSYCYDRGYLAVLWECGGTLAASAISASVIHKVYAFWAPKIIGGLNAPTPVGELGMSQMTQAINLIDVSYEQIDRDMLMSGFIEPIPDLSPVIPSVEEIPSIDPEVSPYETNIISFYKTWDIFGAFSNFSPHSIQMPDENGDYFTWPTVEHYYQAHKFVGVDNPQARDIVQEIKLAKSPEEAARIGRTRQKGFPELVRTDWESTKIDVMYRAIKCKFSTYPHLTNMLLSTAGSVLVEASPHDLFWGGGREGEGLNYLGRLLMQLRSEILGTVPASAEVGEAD
Chain of UniProt P55210 (whole entry, looked up): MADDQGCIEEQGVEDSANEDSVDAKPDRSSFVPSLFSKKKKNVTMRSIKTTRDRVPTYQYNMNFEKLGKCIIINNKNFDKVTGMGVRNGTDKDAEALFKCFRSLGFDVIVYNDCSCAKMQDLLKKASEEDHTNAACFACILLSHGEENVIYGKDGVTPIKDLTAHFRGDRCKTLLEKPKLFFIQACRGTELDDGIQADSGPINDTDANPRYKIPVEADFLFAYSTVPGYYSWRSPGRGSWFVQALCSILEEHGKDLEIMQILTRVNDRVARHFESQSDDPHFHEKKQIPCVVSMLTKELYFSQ
Chain of UniProt P00459 (whole entry, looked up): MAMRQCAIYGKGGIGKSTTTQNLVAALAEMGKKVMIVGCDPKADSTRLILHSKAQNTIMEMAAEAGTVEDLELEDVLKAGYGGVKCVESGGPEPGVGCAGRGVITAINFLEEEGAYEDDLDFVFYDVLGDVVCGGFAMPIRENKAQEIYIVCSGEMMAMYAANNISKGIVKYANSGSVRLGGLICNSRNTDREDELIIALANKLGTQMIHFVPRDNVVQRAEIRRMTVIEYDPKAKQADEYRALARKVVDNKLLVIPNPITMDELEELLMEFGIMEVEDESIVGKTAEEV
Chain of UniProt P07265 (whole entry, looked up): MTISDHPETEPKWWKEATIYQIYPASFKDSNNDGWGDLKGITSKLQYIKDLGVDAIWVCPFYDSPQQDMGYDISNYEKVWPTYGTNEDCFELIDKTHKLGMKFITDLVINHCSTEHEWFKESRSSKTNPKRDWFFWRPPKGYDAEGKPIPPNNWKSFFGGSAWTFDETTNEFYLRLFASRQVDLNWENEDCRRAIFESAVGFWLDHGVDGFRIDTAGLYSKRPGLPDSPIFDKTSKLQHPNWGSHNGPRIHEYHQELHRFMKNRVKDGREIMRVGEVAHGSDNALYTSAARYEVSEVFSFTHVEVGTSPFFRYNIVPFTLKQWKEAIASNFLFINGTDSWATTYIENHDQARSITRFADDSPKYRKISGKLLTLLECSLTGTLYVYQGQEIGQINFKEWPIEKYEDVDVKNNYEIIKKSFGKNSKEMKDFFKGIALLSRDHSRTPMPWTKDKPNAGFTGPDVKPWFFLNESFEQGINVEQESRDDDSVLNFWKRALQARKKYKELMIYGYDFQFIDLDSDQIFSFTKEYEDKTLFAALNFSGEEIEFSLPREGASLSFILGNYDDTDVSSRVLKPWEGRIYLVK
Chain of UniProt P19440 (whole entry, looked up): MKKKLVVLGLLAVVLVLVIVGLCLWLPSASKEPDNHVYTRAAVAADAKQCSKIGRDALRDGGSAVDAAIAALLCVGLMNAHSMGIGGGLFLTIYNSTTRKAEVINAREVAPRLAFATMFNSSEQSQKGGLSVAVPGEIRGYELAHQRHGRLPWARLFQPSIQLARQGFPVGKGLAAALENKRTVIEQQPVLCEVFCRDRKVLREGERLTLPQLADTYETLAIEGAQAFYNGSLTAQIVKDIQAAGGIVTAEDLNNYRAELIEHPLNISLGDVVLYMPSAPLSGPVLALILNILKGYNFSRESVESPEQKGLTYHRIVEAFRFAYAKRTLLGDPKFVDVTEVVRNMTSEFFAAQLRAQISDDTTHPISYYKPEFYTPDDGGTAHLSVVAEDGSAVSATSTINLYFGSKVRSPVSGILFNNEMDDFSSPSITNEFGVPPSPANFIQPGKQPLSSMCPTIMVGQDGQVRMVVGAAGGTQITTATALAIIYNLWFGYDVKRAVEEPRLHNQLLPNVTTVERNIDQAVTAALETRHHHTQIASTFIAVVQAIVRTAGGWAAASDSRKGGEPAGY

Substance = N[C@@H](CCC(=O)Nc1ccc([N+](=O)[O-])cc1)C(=O)O; target = Glutathione hydrolase 1 proenzyme (Homo sapiens, UniProt P19440); assay = transpeptidation, pNA release; setting = pH 7.4, 37 °C, with: glycylglycine acceptor; Km = 1200 ± 100 µM
Substance = Boc-RVRR-{AMC} (N-Boc, C-AMC; Boc = CC(C)(C)OC(=O)*; AMC = Cc1cc(=O)oc2cc(N*)ccc12); target = FURIN; assay = cleavage; setting = 37 °C; Km = 99 µM
Substance = Oc1ccccc1O; target = polyphenol oxidase (Malus domestica); setting = pH 6.8, 25 °C, enzyme pretreated 65 °C 30 min; Km = 23800 ± 3100 µM
Substance = O=[N+]([O-])c1ccc(O[C@H]2O[C@H](CO)[C@@H](O)[C@H](O)[C@H]2O)cc1; target = Alpha-glucosidase MAL62 (MAL62, Saccharomyces cerevisiae, UniProt P07265); assay = hydrolysis; Km = 537 ± 76 µM
Substance = CC(=O)N[C@H]1[C@H](Oc2ccc([N+](=O)[O-])cc2)O[C@H](CO)[C@@H](O)[C@@H]1O; target = Protein O-GlcNAcase (Oceanicola granulosus, UniProt Q2CEE3); system = Oceanicola granulosus, 2% DMSO; setting = pH 7.5, 37 °C; Km = 8500 ± 600 µM
Substance = Cc1cc(=O)oc2cc(NC(=O)[C@H](CCCNC(=N)N)NC(=O)[C@H](CCCNC(=N)N)NC(=O)[C@@H](NC(=O)[C@H](CCCNC(=N)N)NC(=O)OC(C)(C)C)C(C)C)ccc12; target = FURIN; assay = fluorogenic; setting = pH 7.5, 25 °C, with: Boc-RVRR-AMC; Km = 28 ± 1 µM
Substance = Nc1nc2c(ncn2[C@@H]2O[C@H](COP(=O)(O)OP(=O)(O)OP(=O)(O)O)[C@@H](O)[C@H]2O)c(=O)[nH]1; target = retinal guanylyl cyclase (mouse, native); system = ROS fraction from GCAP1,2 knockout retinas; setting = pH 7.2, 30 °C; Km = 1310 ± 170 µM
Substance = Nc1ncnc2c1ncn2[C@@H]1O[C@H](COP(=O)(O)OP(=O)(O)OP(=O)(O)O)[C@@H](O)[C@H]1O; target = Nitrogenase iron protein 1, with MoFe protein (nifH1, Azotobacter vinelandii, UniProt P00459); assay = acetylene reduction; setting = pH 8, 303 K, with: MoFe protein 0.4 µM, Fe protein 1.6 µM; Km = 650 ± 110 µM
Substance = Ac-LDEVD-pNA (N-acetyl, C-pNA; pNA = O=[N+]([O-])c1ccc(N*)cc1); target = Caspase-7 (CASP7, Homo sapiens, UniProt P55210); assay = substrate hydrolysis, colorimetric; setting = pH 7.5; Km = 61 ± 3 µM
Substance = Nc1nc(N[C@@H]2O[C@H](COP(=O)(O)O)[C@@H](O)[C@H]2O)c(N)c(=O)[nH]1 (mixture of isomers); target = Riboflavin biosynthesis protein PYRR, chloroplastic, COG domain (PYRR, Zea mays, UniProt K7WIZ6); assay = HPLC-UV; setting = pH 8.0, 22 °C, with: 5 mM MgCl2; Km = 5560 ± 490 µM
Substance = flavin mononucleotide; target = Isopentenyl-diphosphate delta-isomerase (fni, Streptococcus pneumoniae serotype 4, UniProt Q97SH8); setting = pH 7.0, 37 °C, with: 150 µM IPP and NADPH; Km = 0.343 ± 0.044 µM
Substance = CCCCCCC(=O)Oc1ccc2c(C)cc(=O)oc2c1; target = Fatty acid synthase, thioesterase domain (FASN, Homo sapiens, UniProt P49327); assay = thioesterase domain hydrolysis, fluorogenic; setting = recombinant thioesterase domain; Km = 38.5 µM

For quick reference, copied from above:
Substance = Boc-RVRR-{AMC} (N-Boc, C-AMC; Boc = CC(C)(C)OC(=O)*; AMC = Cc1cc(=O)oc2cc(N*)ccc12); target = FURIN; assay = cleavage; setting = 37 °C; Km = 99 µM
